Results gathered from unrelated publications.
Each line is one published result; not all experiments were run side by side. ± gives the spread as reported.
CNR2: Cannabinoid receptor 2 (CNR2, Homo sapiens, UniProt P34972)
UniProt P34972, sequence (whole entry, unmodified, looked up): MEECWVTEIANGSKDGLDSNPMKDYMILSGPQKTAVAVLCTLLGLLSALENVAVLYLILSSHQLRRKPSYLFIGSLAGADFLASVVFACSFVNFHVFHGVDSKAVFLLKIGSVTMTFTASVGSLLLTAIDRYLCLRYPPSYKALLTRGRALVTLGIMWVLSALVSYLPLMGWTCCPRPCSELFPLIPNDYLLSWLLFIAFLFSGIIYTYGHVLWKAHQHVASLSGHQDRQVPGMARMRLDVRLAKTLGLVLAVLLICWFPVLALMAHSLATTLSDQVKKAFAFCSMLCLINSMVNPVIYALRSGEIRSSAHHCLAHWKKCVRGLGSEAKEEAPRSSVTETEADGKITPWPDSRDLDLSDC

CCCCCn1cc(C(=O)c2cccc3ccccc23)c2ccccc21  Emax (CNR2; Gαi1 engagement, agonist, BRET; HEK293T; reference: reference agonist): 73.5 ± 3.9%
CCOC(=O)[C@](CC)(CCCSCCOCCOCCNC(=O)c1ccc(-c2c3ccc(=N)c(S(=O)(=O)O)c-3oc3c(S(=O)(=O)O)c(N)ccc23)c(C(=O)O)c1)NC(=O)c1ccc(C2CC2)c(Cc2ccc(F)cc2)n1  enantiomer affinity ratio (CNR2; radioligand binding; reference: R over S enantiomer): 1.4 fold
O=C1C(=Cc2cn(Cc3ccc(F)cc3)c3ccccc23)N2CCC1CC2  maximal inhibition (CNR2; cAMP level; CHO expressing human CB2; added: forskolin; negative means cAMP increase): 52 ± 4.5%
CCCCn1cc(C(=O)c2cccc3ccccc23)c2cc(O)ccc21  Emax (CNR2; adenylyl cyclase activity, agonist; CHO cells expressing human CB2; 10 µM, added: forskolin): 55.8 ± 4.9 % inhibition
CC1=C[C@H]2c3c(O)cc(CCc4ccccc4)cc3OC(C)(C)[C@@H]2CC1  Emax (CNR2; GTPγS binding, agonist, radiometric; cell membranes): 116%
CCCCCn1cc(C(=O)c2cccc3c2CC(C)(C)C3)c2ccccc21  Emax (Cannabinoid receptor 2 (CNR2, Homo sapiens, UniProt P34972, V261L); Gαi1 engagement, agonist, BRET; reference: reference agonist at wild-type CB2): 24.7 ± 3%
CCOC(=O)C(CC)(CC)NC(=O)c1ccc(N2CC(OC)C2)c(OC[C@H]2C[C@@H]2CO)n1  Emax (CNR2; cAMP, agonist, TR-FRET; CHO): -130%
CCCCCn1cc(C(=O)c2cccc3ccccc23)c2cc(O)ccc21  Emax (CNR2; adenylyl cyclase activity, agonist; CHO cells expressing human CB2; 10 µM, added: forskolin): 55.1 ± 2.7 % inhibition
CCOC(=O)C(CC)(CC)NC(=O)c1ccc(C2CC2)c(Cc2ccc(F)cc2)n1  selectivity ratio (CNR2; [3H]CP55940 displacement; CHO cell membranes; reference: Ki CB1 over Ki CB2): 21
COC(=O)c1ccc2c(C=C3C(=O)C4CCN3CC4)cn(Cc3ccccc3)c2c1  EC50 (CNR2; cAMP increase; CHO-hCB2): 48 ± 3.9 nM
CC(O)CCn1cc(C(=O)c2cccc3ccccc23)c2ccccc21 (stereo not shown)  Emax (CNR2; adenylyl cyclase activity, agonist; CHO cells expressing human CB2; 10 µM, added: forskolin): 54.4 ± 6.2 % inhibition
CCOC(=O)[C@@](CC)(CCCSCCOCCOCCNc1ccc([N+](=O)[O-])c2nonc12)NC(=O)c1ccc(C2CC2)c(Cc2ccc(F)cc2)n1  Emax (CNR2; cAMP, agonist): 84%
CCCCCn1cc(C(=O)c2ccc3c(c2)CC(C)(C)C3)c2ccccc21  Emax (CNR2; β-arrestin recruitment, agonist, BRET; HEK-293T): 80.8%

For quick reference, copied from above:
CC1=C[C@H]2c3c(O)cc(CCc4ccccc4)cc3OC(C)(C)[C@@H]2CC1  Emax (CNR2; GTPγS binding, agonist, radiometric; cell membranes): 116%
